Results collected from several papers.
Lines come from different studies, so protocols differ. ± marks the error that the study gave.
GLP1R: Glucagon-like peptide 1 receptor (GLP1R, Homo sapiens, UniProt P43220)
DCN1-like protein 1: DCN1-like protein 1 (Homo sapiens, UniProt Q96GG9)

Compound | target | test | test system | conditions | endpoint | value
CC[C@H](C)[C@H](NC(=O)[C@H](Cc1ccccc1)NC(=O)[C@H](CCC(=O)O)NC(=O)[C@H](CCCNC(=N)N)NC(=O)[C@H](C)NC(=O)[C@H](C)NC(=O)[C@H](CCC(N)=O)NC(=O)[C@H](CCCCNc1c(NCCCCCN(O)C(=O)CCC(=O)NCCCCCN(O)C(=O)CCC(=O)NCCCCCN(O)C(C)=O)c(=O)c1=O)NC(=O)[C@H](CCC(=O)O)NC(=O)[C@H](CC(C)C)NC(=O)[C@H](Cc1ccc(O)cc1)NC(=O)[C@H](CO)NC(=O)[C@H](CO)NC(=O)[C@@H](NC(=O)[C@H](CC(=O)O)NC(=O)[C@H](CO)NC(=O)[C@@H](NC(=O)[C@H](Cc1ccccc1)NC(=O)[C@@H](NC(=O)CNC(=O)[C@H](CCC(=O)O)NC(=O)[C@H](C)NC(=O)CCc1cnc[nH]1)[C@@H](C)O)[C@@H](C)O)C(C)C)C(=O)N[C@@H](C)C(=O)N[C@@H](Cc1c[nH]c2ccccc12)C(=O)N[C@@H](CC(C)C)C(=O)N[C@H](C(=O)N[C@@H](CCCCNc1c(NCCCCCN(O)C(=O)CCC(=O)NCCCCCN(O)C(=O)CCC(=O)NCCCCCN(O)C(C)=O)c(=O)c1=O)C(=O)NCC(=O)N[C@@H](CCCNC(=N)N)C(=O)N[C@@H](CCCCNC(=O)COCCOCCNC(=O)COCCOCCNC(=O)CC[C@H](NC(=O)CCCCCCCCCCCCCCCCC(=O)O)C(=O)O)C(=O)O)C(C)C | GLP1R | cAMP reporter gene, agonist, CRE luciferase | BHK | without Zr, 0% HSA | EC50 | 0.085 nM
COc1cc(Nc2ncc(F)c(Nc3ccc4c(n3)NC(=O)C(C)(C)O4)n2)cc(OC)c1OC | Nitric oxide synthase, inducible (NOS2, Homo sapiens, UniProt P35228) | enzyme activity, inhibitor | – | – | IC50 | > 10000 nM
CCCc1cc(O)c2c(c1)OC(C)(C)[C@@H]1CCC(C)=C[C@@H]21 | Transient receptor potential cation channel subfamily V member 3 (TRPV3, Homo sapiens, UniProt Q8NET8, H426A) | calcium uptake, agonist, Fura-2 AM | HEK293S expressing H426A mutant | – | EC50 | 1410 ± 90 nM
CC/C=C/C(=O)N[C@@H]1C(=O)N(CC)c2c(c(C)nn2-c2ccccc2)[C@@H]1c1ccc(F)cc1 | DCN1-like protein 1 | – | – | – | IC50 | > 15000 nM
C[C@H]1CN(c2n[nH]c3nc(N[C@H]4CC[C@H](NS(=O)(=O)CCC(F)(F)F)CC4)ncc23)CCO1 | Dolichyl-diphosphooligosaccharide--protein glycosyltransferase 48 kDa subunit (Homo sapiens, UniProt P39656) | biochemical | – | – | IC50 | ≥ 20000 nM
CCN1C(=O)[C@@H](NC(=O)c2cccc(S(C)(=O)=O)c2)[C@@H](c2ccc(F)cc2)c2c(C)nn(-c3ccccc3)c21 | DCN1-like protein 1 | – | – | – | IC50 | > 15000 nM
CC[C@H](C)[C@H](NC(=O)[C@H](Cc1ccccc1)NC(=O)[C@H](CCC(=O)O)NC(=O)[C@H](CCCNC(=N)N)NC(=O)[C@H](C)NC(=O)[C@H](C)NC(=O)[C@H](CCC(N)=O)NC(=O)[C@H](CCC(=O)O)NC(=O)[C@H](CCC(=O)O)NC(=O)[C@H](CC(C)C)NC(=O)[C@H](Cc1ccc(O)cc1)NC(=O)[C@H](CO)NC(=O)[C@H](CO)NC(=O)[C@@H](NC(=O)[C@H](CC(=O)O)NC(=O)[C@H](CO)NC(=O)[C@@H](NC(=O)[C@H](Cc1ccccc1)NC(=O)[C@@H](NC(=O)CNC(=O)[C@H](CCC(=O)O)NC(=O)[C@H](C)NC(=O)CCc1cnc[nH]1)[C@@H](C)O)[C@@H](C)O)C(C)C)C(=O)N[C@@H](C)C(=O)N[C@@H](Cc1c[nH]c2ccccc12)C(=O)N[C@@H](CC(C)C)C(=O)N[C@H](C(=O)N[C@@H](CCCNC(=N)N)C(=O)NCC(=O)N[C@@H](CCCNC(=N)N)C(=O)N[C@@H](CCCCNC(=O)COCCOCCNC(=O)COCCOCCNC(=O)CC[C@H](NC(=O)CCCCCCCCCCCCCCCCC(=O)O)C(=O)O)C(=O)NCC(=O)NCC(=O)N[C@@H](CO)C(=O)N[C@@H](CCSC)C(=O)N[C@H](C(=O)N[C@@H](CCCCNc1c(NCCCCCN(O)C(=O)CCC(=O)NCCCCCN(O)C(=O)CCC(=O)NCCCCCN(O)C(C)=O)c(=O)c1=O)C(=O)O)C(C)C)C(C)C | GLP1R | cAMP reporter gene, agonist, CRE luciferase | BHK | with Zr, 0% HSA | EC50 | 0.0026 nM
Cc1ccc(-n2nc(C)c3c2NC(=O)[C@@H](NC(=O)c2cccc(C(F)(F)F)c2)[C@H]3c2ccc(F)cc2)cc1 | DCN1-like protein 1 | – | – | – | IC50 | > 15000 nM
CC[C@H](C)[C@H](NC(=O)[C@H](Cc1ccccc1)NC(=O)[C@H](CCC(=O)O)NC(=O)[C@H](CCCNC(=N)N)NC(=O)[C@H](C)NC(=O)[C@H](C)NC(=O)[C@H](CCC(N)=O)NC(=O)[C@H](CCC(=O)O)NC(=O)[C@H](CCC(=O)O)NC(=O)[C@H](CC(C)C)NC(=O)[C@H](Cc1ccc(O)cc1)NC(=O)[C@H](CO)NC(=O)[C@H](CO)NC(=O)[C@@H](NC(=O)[C@H](CC(=O)O)NC(=O)[C@H](CO)NC(=O)[C@@H](NC(=O)[C@H](Cc1ccccc1)NC(=O)[C@@H](NC(=O)CNC(=O)[C@H](CCC(=O)O)NC(=O)[C@H](C)NC(=O)CCc1cnc[nH]1)[C@@H](C)O)[C@@H](C)O)C(C)C)C(=O)N[C@@H](C)C(=O)N[C@@H](Cc1c[nH]c2ccccc12)C(=O)N[C@@H](CC(C)C)C(=O)N[C@H](C(=O)N[C@@H](CCCCNC(=O)COCCOCCNC(=O)COCCOCCNC(=O)CC[C@H](NC(=O)CCCCCCCCCCCCCCCCC(=O)O)C(=O)O)C(=O)NCC(=O)N[C@@H](CCCNC(=N)N)C(=O)N[C@@H](CCCCNc1c(NCCCCCN(O)C(=O)CCC(=O)NCCCCCN(O)C(=O)CCC(=O)NCCCCCN(O)C(C)=O)c(=O)c1=O)C(=O)NCC(=O)NCC(=O)N[C@@H](CO)C(=O)N[C@@H](CCCCNc1c(NCCCCCN(O)C(=O)CCC(=O)NCCCCCN(O)C(=O)CCC(=O)NCCCCCN(O)C(C)=O)c(=O)c1=O)C(=O)NCC(=O)NCC(=O)N[C@@H](CO)C(=O)N[C@@H](CCCCNc1c(NCCCCCN(O)C(=O)CCC(=O)NCCCCCN(O)C(=O)CCC(=O)NCCCCCN(O)C(C)=O)c(=O)c1=O)C(=O)O)C(C)C | GLP1R | cAMP reporter gene, agonist, CRE luciferase | BHK | with Zr, 0% HSA | EC50 | 0.0056 nM
N[C@@H](CS)C(=O)O | SclA protein (Enterococcus faecalis, UniProt Q831E3, H100A) | – | – | – | Ki | 390000 ± 50000 nM

For quick reference, copied from above:
Compound | target | test | test system | conditions | endpoint | value
CC[C@H](C)[C@H](NC(=O)[C@H](Cc1ccccc1)NC(=O)[C@H](CCC(=O)O)NC(=O)[C@H](CCCNC(=N)N)NC(=O)[C@H](C)NC(=O)[C@H](C)NC(=O)[C@H](CCC(N)=O)NC(=O)[C@H](CCC(=O)O)NC(=O)[C@H](CCC(=O)O)NC(=O)[C@H](CC(C)C)NC(=O)[C@H](Cc1ccc(O)cc1)NC(=O)[C@H](CO)NC(=O)[C@H](CO)NC(=O)[C@@H](NC(=O)[C@H](CC(=O)O)NC(=O)[C@H](CO)NC(=O)[C@@H](NC(=O)[C@H](Cc1ccccc1)NC(=O)[C@@H](NC(=O)CNC(=O)[C@H](CCC(=O)O)NC(=O)[C@H](C)NC(=O)CCc1cnc[nH]1)[C@@H](C)O)[C@@H](C)O)C(C)C)C(=O)N[C@@H](C)C(=O)N[C@@H](Cc1c[nH]c2ccccc12)C(=O)N[C@@H](CC(C)C)C(=O)N[C@H](C(=O)N[C@@H](CCCNC(=N)N)C(=O)NCC(=O)N[C@@H](CCCNC(=N)N)C(=O)N[C@@H](CCCCNC(=O)COCCOCCNC(=O)COCCOCCNC(=O)CC[C@H](NC(=O)CCCCCCCCCCCCCCCCC(=O)O)C(=O)O)C(=O)NCC(=O)NCC(=O)N[C@@H](CO)C(=O)N[C@@H](CCSC)C(=O)N[C@H](C(=O)N[C@@H](CCCCNc1c(NCCCCCN(O)C(=O)CCC(=O)NCCCCCN(O)C(=O)CCC(=O)NCCCCCN(O)C(C)=O)c(=O)c1=O)C(=O)O)C(C)C)C(C)C | GLP1R | cAMP reporter gene, agonist, CRE luciferase | BHK | with Zr, 0% HSA | EC50 | 0.0026 nM
